Results collected from several papers.
Lines come from different studies, so protocols differ. ± marks the error that the study gave.

| SMILES | test | test system | conditions | tissue uptake [%ID/g] |
| --- | --- | --- | --- | --- |
| CC(C)[C@H](NC(=O)[C@@H]1CCCN1C(=O)[C@H](CCCNC(=N)N)NC(=O)[C@H](CS)NC(=O)[C@H](Cc1c[nH]c2ccccc12)NC(=O)[C@H](CCCNC(=N)N)NC(=O)[C@@H](Cc1ccccc1)NC(=O)[C@H](Cc1c[nH]cn1)NC(=O)[C@H](CCC(=O)O)NC(=O)[C@H](CS)NC(=O)[C@H](CS)NC(=O)CNC(=O)[C@@H]1CC(=O)N[C@@H](CCCNC(=N)N)C(=O)NCC(=O)N[C@@H](CC(=O)O)C(=O)N[C@H](Cc2ccc(O)cc2)C(=O)N1)C(N)=O [technetium-99m labelled] | – | C57 mouse, female, B16/F1 melanoma, brain | intravenous, 0.037 MBq, 0.5 h | 0.16 ± 0.01 |
| CCCC[C@H](NC(=O)CNC(=O)CNC(=O)CN1CCN(CC(=O)O)CCN(CC(=O)O)CCN(CC(=O)O)CC1)C(=O)N[C@H]1CC(=O)NCCCC[C@@H](C(N)=O)NC(=O)[C@H](Cc2c[nH]c3ccccc23)NC(=O)[C@H](CCCNC(=N)N)NC(=O)[C@@H](Cc2ccccc2)NC(=O)[C@H](Cc2c[nH]cn2)NC1=O [copper-64 labelled] | – | female C57 mouse, B16/F1 melanoma, blood | intravenous, 0.037 MBq, 0.5 h | 2.33 ± 0.54 |
| O=C(O)C1CN(Cc2ccc(-c3noc(-c4ccc(OCC[18F])c(C(F)(F)F)c4)n3)cc2)C1 | – | male Sprague-Dawley rat, pancreas | intravenous, 60 min | 0.298 ± 0.089 |
| CCCC[C@@H]1NC(=O)[C@@H](NC(=O)[C@H](CCC(=O)O)NC(=O)CNC(=O)CN2CCN(CC(=O)O)CCN(CC(=O)O)CCN(CC(=O)O)CC2)CCCCNC(=O)C[C@@H](C(N)=O)NC(=O)[C@H](C(C)C)NC(=O)[C@@H]2CCCN2C(=O)[C@H](CCCNC(=N)N)NC(=O)CNC(=O)[C@H](Cc2c[nH]c3ccccc23)NC(=O)[C@H](CCCNC(=N)N)NC(=O)[C@@H](Cc2ccccc2)NC(=O)[C@H](Cc2c[nH]cn2)NC(=O)[C@H](CCC(=O)O)NC1=O [gallium-67 labelled] | – | normal C57 mice, brain | intravenous, 0.037 MBq/mouse, 4 h | 0.02 ± 0.02 |
| CCCC[C@H](NC(=O)CNC(=O)CNC(=O)CN1CCN(CC(=O)O)CCN(CC(=O)O)CCN(CC(=O)O)CC1)C(=O)N[C@H]1CC(=O)NCCCC[C@@H](C(N)=O)NC(=O)[C@H](Cc2c[nH]c3ccccc23)NC(=O)[C@H](CCCNC(=N)N)NC(=O)[C@@H](Cc2ccccc2)NC(=O)[C@H](Cc2c[nH]cn2)NC1=O [lead-203 labelled] | – | C57 mouse, stomach | intravenous, 0.056 MBq, 2 h | 0.55 ± 0.16 |
| O=C([O-])CN1CCN(CC(=O)[O-])CCN(CC(=O)NCCc2ccc3c(c2)C2C=CCC2C(c2cc4c(cc2Br)OCO4)N3)CCN(CC(=O)[O-])CC1.[111In+3] (stereo not shown) | – | mouse, Hec50 endometrial tumour, adrenals | 4 h post injection | 0.57 ± 0.08 |
| OCc1cn(Cc2ccc(-c3noc(-c4ccc(OCC[18F])c(C(F)(F)F)c4)n3)cc2)nn1 | – | female Lewis rat, fat | intravenous, 60 min | 0.69 ± 0.07 |
| CC(C)[C@H](NC(=O)[C@@H]1CCCN1C(=O)[C@H](CCCNC(=N)N)NC(=O)[C@H](CS)NC(=O)[C@H](Cc1c[nH]c2ccccc12)NC(=O)[C@H](CCCNC(=N)N)NC(=O)[C@@H](Cc1ccccc1)NC(=O)[C@H](Cc1c[nH]cn1)NC(=O)[C@H](CCC(=O)O)NC(=O)[C@H](CS)NC(=O)[C@H](CS)NC(=O)[C@@H]1CC(=O)N[C@@H](CCCNC(=N)N)C(=O)NCC(=O)N[C@@H](CC(=O)O)C(=O)N[C@H](Cc2ccc(O)cc2)C(=O)N1)C(N)=O [technetium-99m labelled] | – | C57 mouse, female, B16/F1 melanoma, pancreas | intravenous, 0.037 MBq, 4 h | 0.2 ± 0.07 |
| CN1C(=O)[C@@H](Cc2ccc(O)c(I)c2)NC(=O)CNC(=O)[C@H](Cc2ccc3ccccc3c2)NC(=O)[C@H](CCCNC(=N)N)NC(=O)[C@H]1CCCNC(=O)c1ccc(CNC(=O)CN2CCN(CC(=O)O)CCN(CC(=O)O)CCN(CC(=O)O)CC2)cc1 [lutetium-177 labelled] | refers to: 177Lu radioactivity | female CB-17 SCID mice, Daudi xenograft, skin | intravenous, 0.16 nmol per mouse, 1 h | 0.9 ± 0.5 |
| CCCC[C@H](NC(=O)CNC(=O)CNC(=O)CN1CCN(CC(=O)O)CCN(CC(=O)O)CC1)C(=O)N[C@H]1CC(=O)NCCCC[C@@H](C(N)=O)NC(=O)[C@H](Cc2c[nH]c3ccccc23)NC(=O)[C@H](CCCNC(=N)N)NC(=O)[C@@H](Cc2ccccc2)NC(=O)[C@H](Cc2c[nH]cn2)NC1=O [gallium-67 labelled] | – | female C57 mice, B16/F1 melanoma, skin | intravenous, 0.037 MBq, 24 h | 0.96 ± 0.24 |
